# Literature values as cited in several papers.
# Protocols differ between the studies behind these lines.
# B1: CX3CL1, human; sequence looked up; chain QHHGVTKCNITCSKMTSKIPVALLIHYQQNQASCGKRAIILETRQHRLFCADPKEQWVKDAMQHLDRQAAALTRNGGTFEKQIGEVKPRTTPAAGGMDESVVLEPEATGESSSLEPTPSSQEAQRALGTSPELPTGVTGSSGTRLPPTPKAQDGGPVGTELFRVPPVSTAATWQSSAPHQPGPSLWAEAKTSEAPSTQDPSTQASTASSPAPEENAPSEGQRVWGQGQSPRPENSLEREEMGPVPAHTDAFQDWGPGSMAHVSVVPVSSEGTPSREPVASGSWTPKAEEPIHATMDPQRLGVLITPVPDAQAATRRQAVGLLAFLGLLFCLGVAMFTYQSLQGCPRKMAGEMAEGLRYIPRSCGSNSYVLVPV
# Sequence of UniProt Q63273 (whole entry, looked up): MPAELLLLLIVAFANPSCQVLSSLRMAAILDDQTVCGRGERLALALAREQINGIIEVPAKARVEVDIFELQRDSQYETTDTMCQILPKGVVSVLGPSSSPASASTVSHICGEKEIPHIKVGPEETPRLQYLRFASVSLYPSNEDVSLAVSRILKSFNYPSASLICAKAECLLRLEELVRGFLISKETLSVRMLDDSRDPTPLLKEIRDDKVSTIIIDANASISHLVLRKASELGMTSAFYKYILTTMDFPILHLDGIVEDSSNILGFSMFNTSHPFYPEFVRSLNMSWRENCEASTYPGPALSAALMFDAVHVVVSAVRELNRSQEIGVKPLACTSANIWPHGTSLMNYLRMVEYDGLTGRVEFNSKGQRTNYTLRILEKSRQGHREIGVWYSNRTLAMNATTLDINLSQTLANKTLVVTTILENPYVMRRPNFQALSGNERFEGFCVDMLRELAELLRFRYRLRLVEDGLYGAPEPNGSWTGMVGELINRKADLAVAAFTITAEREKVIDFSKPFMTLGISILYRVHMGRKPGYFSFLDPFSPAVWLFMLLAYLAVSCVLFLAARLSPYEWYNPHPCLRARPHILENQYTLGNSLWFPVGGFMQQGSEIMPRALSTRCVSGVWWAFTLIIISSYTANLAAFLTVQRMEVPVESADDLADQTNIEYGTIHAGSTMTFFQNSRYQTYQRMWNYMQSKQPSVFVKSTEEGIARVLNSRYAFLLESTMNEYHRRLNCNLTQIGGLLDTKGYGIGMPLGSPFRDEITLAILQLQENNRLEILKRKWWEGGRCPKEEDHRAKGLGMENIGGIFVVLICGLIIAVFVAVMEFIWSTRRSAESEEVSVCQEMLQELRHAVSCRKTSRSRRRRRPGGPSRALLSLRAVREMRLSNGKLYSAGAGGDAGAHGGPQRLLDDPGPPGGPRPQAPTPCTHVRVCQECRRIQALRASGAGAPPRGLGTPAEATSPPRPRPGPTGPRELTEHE
Molecule,target or system,test,test system,conditions,endpoint,value
N[C@@H](C[C@]1(C(=O)O)C[C@H]2OC[C@@H](O)[C@@H](O)[C@H]2O1)C(=O)O,"Glutamate receptor ionotropic, kainate 5 (Grik5, Rattus norvegicus, UniProt Q63273)",radioligand binding,,,Ki,680 nM
COP(=O)(OC)SCn1c(=O)oc2cc(Cl)cnc21,acetylcholinesterase,"enzyme activity, inhibitor",thymus tissue,20 min,IC30,120 nM
O=C(NN1C(=O)C2C3C=CC(C4CC34)C2C1=O)c1ccc(C(F)(F)F)cc1 (stereo not shown),Monkeypox virus,viral replication,clade I and IIa isolates,,EC50,23 to 39 nM
"B1 (CX3CL1, human)",US28 Y16F,"binding, radioligand competition",,,Kd,1.2 nM
